Assay results gathered from unrelated publications.
Compare with care: the assays were run in different laboratories. Numbers after ± are the reported error.
CTSD: Cathepsin D (CTSD, Homo sapiens, UniProt P07339)
Sequence of UniProt P07339 (whole entry, looked up): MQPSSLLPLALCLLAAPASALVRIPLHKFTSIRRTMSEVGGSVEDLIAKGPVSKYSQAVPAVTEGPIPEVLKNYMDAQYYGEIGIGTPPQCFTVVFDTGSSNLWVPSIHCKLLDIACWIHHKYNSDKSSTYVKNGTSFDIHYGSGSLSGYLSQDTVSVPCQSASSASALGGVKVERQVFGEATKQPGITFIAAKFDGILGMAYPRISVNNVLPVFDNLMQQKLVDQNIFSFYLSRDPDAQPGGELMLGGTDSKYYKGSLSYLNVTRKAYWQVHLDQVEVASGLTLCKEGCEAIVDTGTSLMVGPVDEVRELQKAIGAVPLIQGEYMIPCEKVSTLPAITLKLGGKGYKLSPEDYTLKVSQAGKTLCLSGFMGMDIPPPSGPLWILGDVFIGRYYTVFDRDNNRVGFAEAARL
CYP3A4: Cytochrome P450 3A4 (CYP3A4, Homo sapiens, UniProt P08684)
Sequence of UniProt P08684 (whole entry, looked up): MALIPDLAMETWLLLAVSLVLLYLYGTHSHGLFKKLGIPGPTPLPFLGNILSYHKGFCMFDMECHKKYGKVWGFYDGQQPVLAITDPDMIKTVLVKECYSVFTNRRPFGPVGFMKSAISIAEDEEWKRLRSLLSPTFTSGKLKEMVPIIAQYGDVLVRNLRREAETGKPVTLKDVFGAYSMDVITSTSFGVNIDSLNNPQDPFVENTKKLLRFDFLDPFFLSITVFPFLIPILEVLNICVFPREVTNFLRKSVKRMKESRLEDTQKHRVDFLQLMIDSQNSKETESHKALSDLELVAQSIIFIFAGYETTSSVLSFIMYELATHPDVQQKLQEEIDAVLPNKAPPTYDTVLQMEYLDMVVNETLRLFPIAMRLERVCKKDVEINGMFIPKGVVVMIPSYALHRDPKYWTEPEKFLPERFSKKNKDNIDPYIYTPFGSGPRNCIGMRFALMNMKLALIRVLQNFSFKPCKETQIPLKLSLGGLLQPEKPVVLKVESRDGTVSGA
Sequence of UniProt Q16696 (whole entry, looked up): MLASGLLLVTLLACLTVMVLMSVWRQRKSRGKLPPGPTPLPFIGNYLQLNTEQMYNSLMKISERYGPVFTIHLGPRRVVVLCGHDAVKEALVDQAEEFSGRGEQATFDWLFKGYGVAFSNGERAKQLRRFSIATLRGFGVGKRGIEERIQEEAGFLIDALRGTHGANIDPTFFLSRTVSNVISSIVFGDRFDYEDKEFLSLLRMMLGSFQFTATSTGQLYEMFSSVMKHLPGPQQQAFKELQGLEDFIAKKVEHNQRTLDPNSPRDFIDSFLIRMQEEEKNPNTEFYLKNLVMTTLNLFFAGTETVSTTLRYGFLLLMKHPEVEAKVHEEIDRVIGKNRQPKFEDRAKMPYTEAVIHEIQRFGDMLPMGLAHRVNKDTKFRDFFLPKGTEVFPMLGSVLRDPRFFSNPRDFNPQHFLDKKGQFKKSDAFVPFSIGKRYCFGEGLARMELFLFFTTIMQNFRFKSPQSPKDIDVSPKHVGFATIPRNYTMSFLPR
Sequence of UniProt Q96JM7 (whole entry, looked up): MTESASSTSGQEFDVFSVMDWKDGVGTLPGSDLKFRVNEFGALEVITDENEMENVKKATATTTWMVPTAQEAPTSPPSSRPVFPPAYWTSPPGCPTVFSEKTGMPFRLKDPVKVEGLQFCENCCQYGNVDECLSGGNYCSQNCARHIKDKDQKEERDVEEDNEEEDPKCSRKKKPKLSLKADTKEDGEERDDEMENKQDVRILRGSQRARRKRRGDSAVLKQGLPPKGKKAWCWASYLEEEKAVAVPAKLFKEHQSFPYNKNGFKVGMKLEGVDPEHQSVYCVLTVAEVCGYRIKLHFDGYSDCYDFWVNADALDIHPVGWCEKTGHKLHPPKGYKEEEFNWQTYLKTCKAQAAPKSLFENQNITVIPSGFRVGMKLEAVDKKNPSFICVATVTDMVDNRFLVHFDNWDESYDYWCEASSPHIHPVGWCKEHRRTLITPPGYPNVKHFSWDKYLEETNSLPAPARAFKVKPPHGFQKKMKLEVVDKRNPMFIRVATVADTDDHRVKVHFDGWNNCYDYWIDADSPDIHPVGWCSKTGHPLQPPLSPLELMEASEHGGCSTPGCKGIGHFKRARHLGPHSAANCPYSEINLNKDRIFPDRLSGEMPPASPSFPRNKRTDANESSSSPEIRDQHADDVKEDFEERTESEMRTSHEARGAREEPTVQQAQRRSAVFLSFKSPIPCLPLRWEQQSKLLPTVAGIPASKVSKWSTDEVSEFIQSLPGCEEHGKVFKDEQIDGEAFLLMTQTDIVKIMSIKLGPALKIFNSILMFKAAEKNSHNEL
Sequence of UniProt P08253 (whole entry, looked up): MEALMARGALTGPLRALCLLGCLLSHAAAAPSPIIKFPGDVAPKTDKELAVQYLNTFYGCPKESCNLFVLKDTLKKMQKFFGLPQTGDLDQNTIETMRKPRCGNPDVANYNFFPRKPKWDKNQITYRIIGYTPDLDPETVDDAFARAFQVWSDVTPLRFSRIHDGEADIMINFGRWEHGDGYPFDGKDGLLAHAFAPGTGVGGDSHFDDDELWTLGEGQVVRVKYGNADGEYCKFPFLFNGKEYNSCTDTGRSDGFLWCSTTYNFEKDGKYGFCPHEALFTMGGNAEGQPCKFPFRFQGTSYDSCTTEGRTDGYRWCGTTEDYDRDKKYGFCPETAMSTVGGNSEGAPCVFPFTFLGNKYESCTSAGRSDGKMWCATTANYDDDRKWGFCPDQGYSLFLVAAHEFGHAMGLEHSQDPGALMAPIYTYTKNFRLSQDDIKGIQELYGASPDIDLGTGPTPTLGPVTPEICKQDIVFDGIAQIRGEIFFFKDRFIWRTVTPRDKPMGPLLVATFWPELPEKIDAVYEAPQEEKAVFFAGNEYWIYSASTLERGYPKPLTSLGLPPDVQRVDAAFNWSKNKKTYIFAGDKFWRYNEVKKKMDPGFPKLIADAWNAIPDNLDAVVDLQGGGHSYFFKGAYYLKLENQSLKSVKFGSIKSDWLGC
Sequence of UniProt Q12809 (whole entry, looked up): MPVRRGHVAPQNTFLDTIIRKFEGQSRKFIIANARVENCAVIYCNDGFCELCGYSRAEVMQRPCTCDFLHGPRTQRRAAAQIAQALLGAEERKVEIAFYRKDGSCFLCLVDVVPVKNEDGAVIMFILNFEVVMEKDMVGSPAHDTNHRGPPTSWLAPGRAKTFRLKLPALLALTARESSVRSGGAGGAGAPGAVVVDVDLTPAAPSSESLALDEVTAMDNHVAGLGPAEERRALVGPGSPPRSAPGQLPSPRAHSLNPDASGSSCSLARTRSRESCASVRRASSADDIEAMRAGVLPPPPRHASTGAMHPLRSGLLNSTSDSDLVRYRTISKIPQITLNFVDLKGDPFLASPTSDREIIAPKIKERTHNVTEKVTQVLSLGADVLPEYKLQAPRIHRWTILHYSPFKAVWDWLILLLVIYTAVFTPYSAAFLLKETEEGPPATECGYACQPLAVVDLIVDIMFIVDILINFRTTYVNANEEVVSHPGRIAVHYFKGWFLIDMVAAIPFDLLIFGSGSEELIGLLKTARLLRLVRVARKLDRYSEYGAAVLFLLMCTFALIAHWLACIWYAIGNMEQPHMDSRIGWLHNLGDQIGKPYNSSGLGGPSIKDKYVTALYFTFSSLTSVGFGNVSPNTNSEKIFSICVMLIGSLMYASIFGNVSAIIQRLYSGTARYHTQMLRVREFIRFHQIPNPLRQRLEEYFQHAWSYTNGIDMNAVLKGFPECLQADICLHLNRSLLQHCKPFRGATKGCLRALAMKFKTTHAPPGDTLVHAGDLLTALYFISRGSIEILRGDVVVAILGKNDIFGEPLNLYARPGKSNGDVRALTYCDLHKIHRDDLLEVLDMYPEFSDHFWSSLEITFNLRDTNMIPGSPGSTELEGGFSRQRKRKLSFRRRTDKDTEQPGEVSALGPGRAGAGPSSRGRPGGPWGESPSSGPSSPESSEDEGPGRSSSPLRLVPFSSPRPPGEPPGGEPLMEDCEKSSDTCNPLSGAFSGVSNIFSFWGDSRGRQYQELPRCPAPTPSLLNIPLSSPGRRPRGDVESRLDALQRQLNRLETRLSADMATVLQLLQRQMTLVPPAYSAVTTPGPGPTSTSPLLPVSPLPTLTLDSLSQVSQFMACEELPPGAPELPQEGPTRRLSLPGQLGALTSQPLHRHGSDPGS

| Compound | target or system | test | test system | setting | how to read | endpoint | result |
| --- | --- | --- | --- | --- | --- | --- | --- |
| CNCc1cc(-c2ccccc2F)n(S(=O)(=O)c2cccnc2)c1 | CYP2C19 | recombinant CYP with ISEF scaling | – | – | – | fraction metabolised | 5.5% |
| CC(C)CC(=O)N[C@H](C(=O)N[C@H](C(=O)N[C@@H](CC(C)C)[C@@H](O)CC(=O)N[C@@H](C)C(=O)N[C@@H](CC(C)C)[C@@H](O)CC(=O)NCCOCCC(=O)NCCCC[C@H](NC(=O)CN1CCN(CC(=O)O)CCN(CC(=O)O)CC1)C(=O)O)C(C)C)C(C)C | CTSD | SPR | – | – | – | dissociation half-life | 15.5 min |
| CCCCC1=NC2(CCCC2)C(=O)N1Cc1ccc(-c2ccccc2S(=O)(=O)Nc2noc(C)c2C)c(COCC)c1 | CYP2C19 | enzyme induction, inducer | human | – | – | EC50 | 1750 nM |
| CC(C)=CCc1c(O)cc(O)c2c1O[C@H](c1ccc(O)cc1)CC2=O | human CYP3A4 | – | – | 1 µM, pH 7.4 | – | inhibition | < 10% |
| CC[C@H]1[C@@H](O)[C@@H]2[C@H](CC[C@]3(C)[C@@H]([C@H](C)CCNC(=O)NS(=O)(=O)c4ccc(C(C)(C)C)cc4)CC[C@@H]23)[C@@]2(C)CC[C@@H](O)C[C@@H]12 | CYP3A4 | – | human, plasma | dose not given, together with: fluconazole | – | Tmax median | 275 min |
| CC(C)C[C@H](NC(=O)CNC(=O)[C@H](C)NC(=O)[C@H](CC(C)C)NC(=O)[C@H](CC(N)=O)NC(=O)[C@H](Cc1c[nH]c2ccccc12)NC(=O)[C@@H](NC(=O)[C@H](Cc1ccc(O)cc1)NC(=O)[C@H](Cc1ccc(O)cc1)NC(=O)[C@H](CO)NC(=O)[C@H](CCCNC(=N)N)NC(=O)[C@H](Cc1c[nH]cn1)NC(=O)[C@@H](N)Cc1c[nH]c2ccccc12)[C@@H](C)O)C(=O)N[C@H](C(=O)NCC(=O)N[C@@H](CCCCN)C(=O)O)C(C)C | 72 kDa type IV collagenase (MMP2, Homo sapiens, UniProt P08253) | substrate, LC-MS | – | concentration not given, 48 h, 37 °C | – | nonspecific cleavage products | < 5% |
| C[C@H]1CN(C2COC2)CCN1c1ccc(Nc2cc(-c3ccnc(N4CCn5c(cc6c5CC(C)(C)C6)C4=O)c3CO)cn(C)c2=O)nc1 | human liver microsomes CYP | – | human liver microsomes | 1 µM, 60 min, pH 7.4, together with: NADPH | baseline: 0 min | remaining compound | 58.9 ± 8% |
| COc1ccc2[nH]c([S+]([O-])Cc3ncc(C)c(OC)c3C)nc2c1 (stereo not shown) | CYP1A2 human | inducer | hepatocytes lot LTG | 100 µM | baseline: DMSO | relative enzyme activity | 87.5 |
| COc1ccc(-c2cc(=O)c3c(O)cc(O)cc3o2)cc1OC | Cytochrome P450 2A13 (Homo sapiens, UniProt Q16696) | enzyme activity, inhibitor | – | together with: 10 µM coumarin | – | IC50 | > 200000 nM |
| Cc1oc2ccccc2c1Cc1cc(I)c(OCC(=O)O)c(I)c1 | Voltage-gated inwardly rectifying potassium channel KCNH2 (KCNH2, Homo sapiens, UniProt Q12809) | potassium current, whole-cell patch clamp, refers to: plateau current | HEK293 expressing hERG1 | 10 µM, repetitive pulsing to -20 mV, 4 mM K+ | baseline: control | current | 264 ± 2% |
| O=C(/C=C/c1cccnc1)NCCCCC1CCN(C(=O)c2ccccc2)CC1 | rat cytochrome P450 | inhibitor | rat liver microsomes | 100 µM, 15 min, pH 7.4, together with: aminopyrine 2 mM | – | aminopyrine N-demethylase activity | 3.54 nmol/min/mg |
| O=C(Nc1c2c(cc3c1CCC3)CCC2)NS(=O)(=O)/C=C/c1nccs1 | human CYP3A4 | – | human liver microsomes | 10 µM, pH 7.4, together with: testosterone | – | inhibition | < 0% |
| COc1c(O)c(C)cc2c1C(=O)c1c(cc(O)c(O)c1O)C2=O | HK-2 co-cultured with HepaRG | MTT | – | 133.33 µM, 24 h | baseline: untreated control | viability | 94.1 ± 11.9% |
| Cc1cc(Nc2ncnc3ccc(NC4=NC(C)(CO)CO4)cc23)ccc1Oc1ccn2ncnc2c1 (stereo not shown) | CYP3A4 | – | human, plasma | tucatinib, day 6, together with: itraconazole | – | AUC(0-t) (geometric mean) | 754 ng·h/mL |
| COc1cc2c(c(OC)c1OC)-c1c(cc3c(c1OC)OCO3)[C@H](OC(=O)c1ccccc1)[C@@](C)(O)[C@@H](C)C2 | human recombinant CYP3A4 and CYP3A5 | refers to: oxidized nifedipine | – | 15 min, pH 7.4, together with: nifedipine 20 µM | baseline: CYP3A4 over CYP3A5 | IC50 ratio | 4.3 |
| CC(C)CC(=O)N[C@H](C(=O)N[C@H](C(=O)N[C@@H](CC(C)C)[C@@H](O)CC(=O)N[C@@H](C)C(=O)N[C@@H](CC(C)C)[C@@H](O)CC(N)=O)C(C)C)C(C)C | CTSD | SPR | – | – | – | dissociation half-life | 7.22 min |
| COc1cc2c(c(O)c1OC)C(=O)c1c(cc(C)c(O[C@@H]3O[C@H](CO)[C@@H](O)[C@H](O)[C@H]3O)c1OC)C2=O | HK-2 co-cultured with HepaRG | MTT | – | 66.67 µM, 24 h | baseline: untreated control | cell viability | 81.8 ± 11.1% |
| O=C(c1ccc(C(=O)N2CCC(N3CCCC3)CC2)c(Nc2ccccc2)c1)N1CCC(N2CCCC2)CC1 | Lethal(3)malignant brain tumor-like protein 3, MBT domains (Homo sapiens, UniProt Q96JM7) | FRAP | human cells | 0.05 µM | – | FRAP recovery half-time | 6.5 s |
| CC(C)=CCc1c(O)cc2c(c1O)C(=O)C[C@@H](c1ccc(O)cc1)O2 | human CYP3A4 | – | – | 1 µM, pH 7.4 | – | inhibition | < 10% |

Excerpt of the above:
| Compound | target or system | test | test system | setting | how to read | endpoint | result |
| --- | --- | --- | --- | --- | --- | --- | --- |
| CC(C)CC(=O)N[C@H](C(=O)N[C@H](C(=O)N[C@@H](CC(C)C)[C@@H](O)CC(=O)N[C@@H](C)C(=O)N[C@@H](CC(C)C)[C@@H](O)CC(=O)NCCOCCC(=O)NCCCC[C@H](NC(=O)CN1CCN(CC(=O)O)CCN(CC(=O)O)CC1)C(=O)O)C(C)C)C(C)C | CTSD | SPR | – | – | – | dissociation half-life | 15.5 min |
| CCCCC1=NC2(CCCC2)C(=O)N1Cc1ccc(-c2ccccc2S(=O)(=O)Nc2noc(C)c2C)c(COCC)c1 | CYP2C19 | enzyme induction, inducer | human | – | – | EC50 | 1750 nM |
